Measurements of several laboratories.
Compare with care: the assays were run in different laboratories. ± gives the spread as reported.

c1ccc(C2CC(Nc3ccc(-c4ccc(NC5=NOC(c6ccccc6)C5)cc4)cc3)=NO2)cc1 (stereo not drawn)
logP (shake flask UV/Vis; n-octanol/water): 6.6

O=C(O)CCC(=O)NCCCOCCOCCOCCCNC(=O)CCC(=O)O
logP (shake-flask; n-octanol/water; 24 °C): -0.48

CN(C)c1ccc(/C=C/c2cc(=O)cc(/C=C/c3ccc(N(C)C)cc3)o2)cc1
logP (n-octanol/10 mM PBS; pH 7.4): 2.61

O=c1cc(-c2ccc(O)c(O)c2)oc2cc(O)cc([O][Ga+][O]c3cc(O)cc4oc(-c5ccc(O)c(O)c5)cc(=O)c34)c12
logP (shake-flask octanol/PBS; pH 7.4, 37 °C): 0.95

COc1cc(C2CC(Nc3ccc(-c4ccc(NC5=NN(C(C)=O)C(c6ccc(O)c(OC)c6)C5)cc4)cc3)=NN2C(C)=O)ccc1O (stereo not drawn)
logP (shake flask UV/Vis; n-octanol/water): 5.25

NS(=O)(=O)c1ccc(N/N=C2\C(=O)Nc3ccc(C(=O)NCCc4c[nH]cn4)cc32)cc1
logP (octanol/buffer, 40 mM buffer; pH 11): 1.01

COc1cc(C2CC(Nc3ccc(-c4ccc(NC5=NOC(c6ccc(O)c(OC)c6)C5)cc4)cc3)=NO2)ccc1O (stereo not drawn)
logP (shake flask UV/Vis; n-octanol/water): 5.02

C1=[N+]2CCCC[N+]3=Cc4ccc5[n]4[Au-]23[n]2c1ccc2-c1nc2ccccc2nc1-5.F[P-](F)(F)(F)(F)F
logP (octanol/water): 0.878

COc1ccccc1C1CC(Nc2ccc(-c3ccc(NC4=NN(C(C)=O)C(c5ccccc5OC)C4)cc3)cc2)=NN1C(C)=O (stereo not drawn)
logP (shake flask UV/Vis; n-octanol/water): 6.78

Cc1nc(C)c(-c2ccnc(Nc3cccc(C#N)c3)n2)s1
logP (octanol/buffer, 40 mM buffer; pH 11): 3.89

COc1ccc(Nc2nc(Nc3ccc(OCCOCCOCC[18F])cc3)ncc2Br)cc1
logP (n-octanol/PBS; pH 7.4): 2.86 ± 0.06

CN1CCN(c2ccc(/C=C/c3cc(=O)cc(/C=C/c4ccc(N5CCN(C)CC5)cc4)o3)cc2)CC1
logP (n-octanol/10 mM PBS; pH 7.4): 1.2

COc1ccc(C=CC(=O)Nc2ccc(-c3ccc(NC(=O)C=Cc4ccc(OC)cc4)cc3)cc2)cc1
logP (shake flask UV/Vis; n-octanol/water): 6.7

O=c1cc(-c2ccccc2)oc2cc(O)c(O)c([O][Ga+][O]c3c(O)c(O)cc4oc(-c5ccccc5)cc(=O)c34)c12
logP (shake-flask octanol/PBS; pH 7.4, 37 °C): 1.38

O=C(O)/C=C\C(=O)NCCCOCCOCCOCCCNC(=O)/C=C\C(=O)O
logP (shake-flask; n-octanol/water; 24 °C): -0.43

Oc1c(Br)cc(Br)c2nc3cc(Cl)ccc3nc12
logP (UV-vis; octanol/water): 0.68 ± 0.13

CC(=O)N1N=C(Nc2ccc(-c3ccc(NC4=NN(C(C)=O)C(c5ccc(N(C)C)cc5)C4)cc3)cc2)CC1c1ccc(N(C)C)cc1 (stereo not drawn)
logP (shake flask UV/Vis; n-octanol/water): 6.58

O=c1c(O)c(-c2ccc(O)c(O)c2)oc2cc(O)cc([O][Ga+][O]c3cc(O)cc4oc(-c5ccc(O)c(O)c5)c(O)c(=O)c34)c12
logP (shake-flask octanol/PBS; pH 7.4, 37 °C): 0.46

Cc1cc2nc3c(nc2cc1C)-c1ccc2[n]1[Au-]14[n]5c(ccc5-3)C=[N+]1CCC[N+]4=C2.F[P-](F)(F)(F)(F)F
logP (octanol/water): 1.02

CC(CCC(=O)OCc1cc(CN(C(=O)OCc2ccc(B(O)O)cc2)[c-]2cccc2)cc(-c2cn(-c3cc4ccc(O)cc4oc3=O)nn2)c1)C1CCC2C3C(O)CC4CC(O)CCC4(C)C3CC(O)C12C.[Fe+2].c1cc[cH-]c1 (stereo not drawn)
logP (RP-TLC; pH 7.4): 5.7 ± 0.07

CC(=O)[O][Pt]([NH2])([NH2])([Cl])([Cl])[O]C(=O)CCC(C)C1CCC2C3CCC4CC(O)CCC4(C)C3CCC12C (stereo not drawn)
logP (shake flask; octanol/phosphate buffer; pH 7.4): -0.53

Cc1cc(NC(=O)c2ccc(Br)cc2)n[nH]1
logP (octanol/buffer; 67 µM, pH 11): 2.7

Oc1ccc(C2CC(Nc3ccc(-c4ccc(NC5=NOC(c6ccc(O)cc6)C5)cc4)cc3)=NO2)cc1 (stereo not drawn)
logP (shake flask UV/Vis; n-octanol/water): 5.41

CC1(C)C[N+]2=Cc3ccc4[n]3[Au-]23[n]2c(ccc2-c2nc5ccccc5nc2-4)C=[N+]3C1.F[P-](F)(F)(F)(F)F
logP (octanol/water): 1.01

Some of these lines once more:
COc1ccc(C=CC(=O)Nc2ccc(-c3ccc(NC(=O)C=Cc4ccc(OC)cc4)cc3)cc2)cc1
logP (shake flask UV/Vis; n-octanol/water): 6.7

O=c1cc(-c2ccccc2)oc2cc(O)c(O)c([O][Ga+][O]c3c(O)c(O)cc4oc(-c5ccccc5)cc(=O)c34)c12
logP (shake-flask octanol/PBS; pH 7.4, 37 °C): 1.38

O=C(O)/C=C\C(=O)NCCCOCCOCCOCCCNC(=O)/C=C\C(=O)O
logP (shake-flask; n-octanol/water; 24 °C): -0.43

Oc1c(Br)cc(Br)c2nc3cc(Cl)ccc3nc12
logP (UV-vis; octanol/water): 0.68 ± 0.13
